Results of several laboratories.
Protocols differ between the studies behind these lines. ± gives the spread as reported.

SMILES	species	medium	route	dose	time	tissue uptake
N=C(N)NCCC[C@@H]1NC(=O)[C@H](CCCCNC(=O)CC[C@H](NC(=O)CC[C@H](NC(=O)CN2CCN(CC(=O)O)CCN(CC(=O)O)CCN(CC(=O)O)CC2)C(=O)N[C@@H](CCC(=O)NCCCC[C@@H]2NC(=O)[C@@H](Cc3ccccc3)NC(=O)[C@H](CC(=O)O)NC(=O)CNC(=O)[C@H](CCCNC(=N)N)NC2=O)C(=O)NCCCC[C@@H]2NC(=O)[C@@H](Cc3ccccc3)NC(=O)[C@H](CC(=O)O)NC(=O)CNC(=O)[C@H](CCCNC(=N)N)NC2=O)C(=O)NCCCC[C@@H]2NC(=O)[C@@H](Cc3ccccc3)NC(=O)[C@H](CC(=O)O)NC(=O)CNC(=O)[C@H](CCCNC(=N)N)NC2=O)NC(=O)[C@@H](Cc2ccccc2)NC(=O)[C@H](CC(=O)O)NC(=O)CNC1=O [indium-111 labelled]	female athymic nu/nu mice	brain	intravenous		0.5 h	0.15 ± 0.04 %ID/g
N=C(N)NCCC[C@@H]1NC(=O)[C@H](CCCCNC(=O)CNC(=O)CNC(=O)CNC(=O)CC[C@H](NC(=O)CNC(=O)CNC(=O)CNC(=O)CN2CCN(CC(=O)O)CCN(CC(=O)O)CCN(CC(=O)O)CC2)C(=O)NCC(=O)NCC(=O)NCC(=O)NCCCC[C@@H]2NC(=O)[C@@H](Cc3ccccc3)NC(=O)[C@H](CC(=O)O)NC(=O)CNC(=O)[C@H](CCCNC(=N)N)NC2=O)NC(=O)[C@@H](Cc2ccccc2)NC(=O)[C@H](CC(=O)O)NC(=O)CNC1=O [copper-64 labelled]	athymic nu/nu mouse, female	liver	intravenous		0.5 h	2.6 ± 0.01 %ID/g
N=C(N)NCCC[C@@H]1NC(=O)[C@H](CCCCNC(=O)CNC(=O)CNC(=O)CNC(=O)CC[C@H](NC(=O)CNC(=O)CNC(=O)CNC(=O)CC[C@H](NC(=O)CN2CCN(CC(=O)O)CCN(CC(=O)O)CCN(CC(=O)O)CC2)C(=O)NCC(=O)NCC(=O)NCC(=O)N[C@@H](CCC(=O)NCC(=O)NCC(=O)NCC(=O)NCCCC[C@@H]2NC(=O)[C@@H](Cc3ccccc3)NC(=O)[C@H](CC(=O)O)NC(=O)CNC(=O)[C@H](CCCNC(=N)N)NC2=O)C(=O)NCC(=O)NCC(=O)NCC(=O)NCCCC[C@@H]2NC(=O)[C@@H](Cc3ccccc3)NC(=O)[C@H](CC(=O)O)NC(=O)CNC(=O)[C@H](CCCNC(=N)N)NC2=O)C(=O)NCC(=O)NCC(=O)NCC(=O)NCCCC[C@@H]2NC(=O)[C@@H](Cc3ccccc3)NC(=O)[C@H](CC(=O)O)NC(=O)CNC(=O)[C@H](CCCNC(=N)N)NC2=O)NC(=O)[C@@H](Cc2ccccc2)NC(=O)[C@H](CC(=O)O)NC(=O)CNC1=O [indium-111 labelled]	female athymic nu/nu mice	U87MG tumour	intravenous	111 kBq	1 h	11.4 ± 2.46 %ID/g
CC(C)C[C@H](NC(=O)[C@@H](CCCCNC(=O)CCCCCNC(=O)CN1CCN(CC(=O)O)CCN(CC(=O)O)CCN(CC(=O)O)CC1)NC(=O)[C@H](Cc1ccc(O)cc1)NC(=O)[C@H](CO)NC(=O)[C@H](Cc1c[nH]c2ccccc12)NC(=O)[C@H](Cc1cnc[nH]1)NC(=O)[C@@H]1CCC(=O)N1)C(=O)N[C@@H](CCCNC(=N)N)C(=O)N1CCC[C@H]1C(=O)NCC(N)=O [indium-111 labelled]	female athymic nude mouse	stomach	intravenous	0.037 MBq	24 h	0.04 ± 0.01 %ID/g
CCCC[C@H](NC(=O)COCCOCCNC(=O)CN1CCN(CC(=O)O)CCN(CC(=O)O)CC1)C(=O)N[C@H]1CC(=O)NCCCC[C@@H](C(N)=O)NC(=O)[C@H](Cc2c[nH]c3ccccc23)NC(=O)[C@H](CCCNC(=N)N)NC(=O)[C@@H](Cc2ccccc2)NC(=O)[C@H](Cc2c[nH]cn2)NC1=O [copper-64 labelled]	C57 mice	skin	intravenous	0.37 MBq	4 h	0.46 ± 0.22 %ID/g
CCCC[C@H](NC(=O)CNC(=O)CNC(=O)CN1CCN(CC(=O)O)CCN(CC(=O)O)CC1)C(=O)N[C@H]1CC(=O)NCCCC[C@@H](C(N)=O)NC(=O)[C@H](Cc2c[nH]c3ccccc23)NC(=O)[C@H](CCCNC(=N)N)NC(=O)[C@@H](Cc2ccccc2)NC(=O)[C@H](Cc2c[nH]cn2)NC1=O [technetium-99m labelled]	C57 mouse	bone	iv	0.037 MBq	4 h	0.07 ± 0.06 %ID/g
CC(C)C[C@H](NC(=O)[C@H](Cc1ccc(O)cc1)NC(=O)[C@@H](CCCNC(=N)N)NC(=O)[C@@H](CO)NC(=O)[C@H](Cc1ccccc1)NC(=O)[C@H](CC1CCCCC1)NC(=O)[C@H](CC(=O)O)NC(=O)CN1CCCN2CCN(CCCN(CC(=O)O)CC2)CC1)C(=O)N[C@@H](Cc1c[nH]c2ccccc12)C(=O)N[C@@H](CO)C(=O)O [copper-64 labelled]	female NMRI nude mice	brain			22 h p.i.	0.1 ± 0.1 %ID/g
CCCC[C@H](NC(=O)CNC(=O)CNC(=O)CN1CCN(CC(=O)O)CCN(CC(=O)O)CCN(CC(=O)O)CC1)C(=O)N[C@H]1CC(=O)NCCCC[C@@H](C(N)=O)NC(=O)[C@H](Cc2c[nH]c3ccccc23)NC(=O)[C@H](CCCNC(=N)N)NC(=O)[C@@H](Cc2ccccc2)NC(=O)[C@H](Cc2c[nH]cn2)NC1=O [lutetium-177 labelled]	C57 mouse, female	bone	intravenous	0.037 MBq	2 h	0.34 ± 0.1 %ID/g
N=C(N)NCCC[C@@H]1NC(=O)[C@H](CCCCNC(=O)CNC(=O)CNC(=O)CNC(=O)CC[C@H](NC(=O)CNC(=O)CNC(=O)CNC(=O)CN2CCN(CC(=O)O)CCN(CC(=O)O)CCN(CC(=O)O)CC2)C(=O)NCC(=O)NCC(=O)NCC(=O)NCCCC[C@@H]2NC(=O)[C@@H](Cc3ccccc3)NC(=O)[C@H](CC(=O)O)NC(=O)CNC(=O)[C@H](CCCNC(=N)N)NC2=O)NC(=O)[C@@H](Cc2ccccc2)NC(=O)[C@H](CC(=O)O)NC(=O)CNC1=O [indium-111 labelled]	female athymic nu/nu mice	spleen	intravenous	111 kBq	1 h	1.36 ± 0.13 %ID/g
CCCC[C@H](NC(=O)CCCCCCCNC(=O)CN1CCN(CC(=O)O)CCN(CC(=O)O)CC1)C(=O)N[C@H]1CC(=O)NCCCC[C@@H](C(N)=O)NC(=O)[C@H](Cc2c[nH]c3ccccc23)NC(=O)[C@H](CCCNC(=N)N)NC(=O)[C@@H](Cc2ccccc2)NC(=O)[C@H](Cc2c[nH]cn2)NC1=O [copper-64 labelled]	C57 mice	blood	intravenous	0.37 MBq	24 h	0.02 ± 0.03 %ID/g

Repeated from above:
SMILES	species	medium	route	dose	time	tissue uptake
CCCC[C@H](NC(=O)CNC(=O)CNC(=O)CN1CCN(CC(=O)O)CCN(CC(=O)O)CC1)C(=O)N[C@H]1CC(=O)NCCCC[C@@H](C(N)=O)NC(=O)[C@H](Cc2c[nH]c3ccccc23)NC(=O)[C@H](CCCNC(=N)N)NC(=O)[C@@H](Cc2ccccc2)NC(=O)[C@H](Cc2c[nH]cn2)NC1=O [technetium-99m labelled]	C57 mouse	bone	iv	0.037 MBq	4 h	0.07 ± 0.06 %ID/g
